Published values pooled from the literature.
Compare with care: the assays were run in different laboratories.

Compound | organism | assay | test system | conditions | MIC
CC(=O)N[C@@H](CC(C)C)C(=O)N[C@H]1CSSC[C@@H](C(=O)N2CCC[C@H]2C(N)=O)NC(=O)[C@H]([C@@H](C)O)NC(=O)[C@H](C(C)C)NC(=O)[C@H]([C@@H](C)O)NC(=O)CNC(=O)[C@H](CC(C)C)NC(=O)[C@H](Cc2ccccc2)NC(=O)[C@H](Cc2ccc(O)cc2)NC(=O)[C@H](CC(C)C)NC(=O)[C@H](CCCCN)NC(=O)[C@H](Cc2ccccc2)NC(=O)[C@H](CCCNC(=N)N)NC(=O)[C@H](CCC(N)=O)NC(=O)[C@H](CC(C)C)NC(=O)[C@H](CCCCN)NC(=O)[C@@H]2CCCN2C(=O)[C@H](CCCCN)NC(=O)[C@H](C(C)C)NC(=O)[C@H](CC(N)=O)NC(=O)[C@H](Cc2ccc(O)cc2)NC(=O)[C@H]([C@@H](C)O)NC1=O | Corynebacterium glutamicum | broth dilution | CGMCC strain | 24 h | 1.25 to 2.5 µM
CC[C@H](C)[C@H](NC(=O)[C@H](CCCCN)NC(=O)[C@H](CCCCN)NC(=O)[C@H](Cc1ccccc1)NC(=O)[C@H](Cc1ccccc1)NC(=O)[C@H](CCCCN)NC(=O)[C@H](CCCCN)NC(=O)[C@H](Cc1ccccc1)NC(=O)[C@H](CCCNC(=N)N)NC(=O)[C@@H](N)CCCCN)C(=O)N[C@@H](CCCCN)C(=O)N[C@@H](CCCCN)C(=O)N[C@@H](CO)C(=O)N[C@H](C(=O)N[C@@H](CCCCN)C(=O)N[C@@H](CCCCN)C(=O)N[C@@H](CCCNC(=N)N)C(=O)N[C@H](C(=O)N[C@@H](CCCCN)C(=O)N[C@@H](CCCCN)C(=O)N[C@@H](CC(C)C)C(=O)N[C@@H](Cc1ccccc1)C(=O)N[C@@H](CCCCN)C(=O)N[C@@H](CCCCN)C(=O)N1CCC[C@H]1C(=O)N[C@@H](CCCNC(=N)N)C(=O)N[C@H](C(=O)N[C@H](C(=O)N1CCC[C@H]1C(=O)N[C@H](C(=O)N[C@@H](CO)C(=O)N[C@H](C(=O)N1CCC[C@H]1C(=O)N[C@@H](Cc1ccccc1)C(=O)O)[C@@H](C)CC)[C@@H](C)CC)[C@@H](C)CC)C(C)C)C(C)C)C(C)C | Pseudomonas aeruginosa | broth microdilution | P3 clinical isolate | 20 h | 4 µg/mL
CC(C)C[C@@H]1NC(=O)[C@H](CCCNC(=N)N)NC(=O)[C@H](CCCNC(=N)N)NC(=O)[C@@H](NC(=O)[C@@H](N)CCC(=O)O)CSSC[C@@H](C(=O)N[C@@H](CCCNC(=N)N)C(=O)NCC(=O)N[C@@H](CCCNC(=N)N)C(N)=O)NC(=O)[C@H](Cc2ccc(O)cc2)NC(=O)[C@H]([C@@H](C)O)NC(=O)[C@H](C(C)C)NC(=O)[C@@H]2CSSC[C@H](NC1=O)C(=O)N[C@@H](Cc1ccc(O)cc1)C(=O)N[C@@H](CCCCN)C(=O)N[C@@H](CCC(N)=O)C(=O)N[C@@H](CCCNC(=N)N)C(=O)N2 | Corynebacterium glutamicum |  | ATCC 13032 | 37 °C | 0.195 µM
CC(C)CCCCCCCCC/C=C/C(=O)N[C@@H](CC(N)=O)C(=O)N[C@H]1CNC(=O)[C@@H]2CCCN2C(=O)[C@H](C(C)C)NC(=O)[C@@H](CN)NC(=O)CNC(=O)[C@H](CC(=O)O)NC(=O)CNC(=O)[C@H](CC(=O)O)NC(=O)[C@H](CC(=O)O)NC(=O)[C@H]2CCCCN2C1=O | Enterococcus | broth microdilution | VRE 155, Mueller-Hinton broth, Mg2+ 10 mg/L | 16 h, added: Ca2+ 2.5 mM | 1 µg/mL
[O-][N+]1=C(c2ccc(Cl)cc2)C2=NCCCCN2c2ccccc21 | Bacteroides fragilis |  |  |  | 0.5 to 2 µg/mL
OB(O)c1ccc(OCc2ccccc2)nc1F | Klebsiella aerogenes | bacterial growth | AmpC overproducer clinical isolate | without cefotaxime | > 2050 µg/mL
COc1ccc(C2=[N+]([O-])c3ccccc3N3CC(C)(C)CN=C23)cc1 | Bacteroides fragilis |  |  |  | 0.125 to 0.5 µg/mL
O=C(c1ccccc1O)c1[nH]c(Cl)c(Cl)c1-n1c(C(=O)c2ccccc2O)cc(Cl)c1Cl | Listeria ivanovii |  | BAA-139 |  | 0.5 µM
CCCCCCCCCCCCCC(=O)N[C@H]1C(=O)N[C@@H](CN)C(=O)N[C@@H](CO)C(=O)N[C@@H](Cc2ccc(O)cc2)C(=O)O[C@H]1C | Staphylococcus aureus |  | SH1000 | added: menaquinone-4, molar ratio 0.5 | 2 µg/mL
CC(=O)N[C@@H](CC(C)C)C(=O)N[C@H]1CSSC[C@@H](C(=O)N2CCC[C@H]2C(N)=O)NC(=O)[C@H](CCCCN)NC(=O)[C@H](C(C)C)NC(=O)[C@H](CCCCN)NC(=O)CNC(=O)[C@H](CC(C)C)NC(=O)[C@H](Cc2ccccc2)NC(=O)[C@H](CCCCN)NC(=O)[C@H](CC(C)C)NC(=O)[C@H](CCC(=O)O)NC(=O)[C@H](Cc2ccccc2)NC(=O)[C@H](CCCNC(=N)N)NC(=O)[C@H](CCCCN)NC(=O)[C@H](CC(C)C)NC(=O)[C@H](CC(=O)O)NC(=O)[C@@H]2CCCN2C(=O)[C@H](CCCCN)NC(=O)[C@H](C(C)C)NC(=O)[C@H](CCCCN)NC(=O)[C@H](CCCCN)NC(=O)[C@H](CCCCN)NC1=O | Shigella flexneri | broth dilution | CGMCC strain | 24 h | 1.25 to 2.5 µM
CC1(C)C(NC(=O)C(=NOC2(C(=O)O)CC2)c2csc(N)n2)C(=O)N1OS(=O)(=O)O (stereo not shown) | Klebsiella pneumoniae |  | ATCC BAA-2146, ESBL and NDM-positive | compound alone | 2 µg/mL
[O-][N+]1=C(c2ccsc2)C2=NCCCN2c2ccccc21 | Bacteroides spp. and Parabacteroides distasonis |  |  |  | 0.25 to 1 µg/mL
CC(C)CCCCCCCCC/C=C/C(=O)N[C@@H](CC(=O)O)C(=O)N[C@H]1CNC(=O)[C@@H]2CCCN2C(=O)[C@H](C(C)C)NC(=O)[C@@H](CN)NC(=O)CNC(=O)[C@H](CC(=O)O)NC(=O)CNC(=O)[C@H](CC(=O)O)NC(=O)[C@H](CC(=O)O)NC(=O)[C@H]2CCCCN2C1=O | Staphylococcus aureus | broth microdilution | MRSA USA300, Mueller-Hinton broth, Mg2+ 10 mg/L | 16 h, 37 °C, added: Ca2+ 0 mM | > 128 µg/mL
CC(=O)N[C@@H](CC(C)C)C(=O)N[C@H]1CSSC[C@@H](C(=O)N2CCC[C@H]2C(N)=O)NC(=O)[C@H]([C@@H](C)O)NC(=O)[C@H](C(C)C)NC(=O)[C@H]([C@@H](C)O)NC(=O)CNC(=O)[C@H](CC(C)C)NC(=O)[C@H](Cc2ccccc2)NC(=O)[C@H](Cc2ccc(O)cc2)NC(=O)[C@H](CC(C)C)NC(=O)[C@H](CCCCN)NC(=O)[C@H](Cc2ccccc2)NC(=O)[C@H](CCCNC(=N)N)NC(=O)[C@H](CCCCN)NC(=O)[C@H](CC(C)C)NC(=O)[C@H](CCCCN)NC(=O)[C@@H]2CCCN2C(=O)[C@H](CCCCN)NC(=O)[C@H](C(C)C)NC(=O)[C@H](CC(N)=O)NC(=O)[C@H](Cc2ccc(O)cc2)NC(=O)[C@H]([C@@H](C)O)NC1=O | Vibrio alginolyticus | broth dilution |  | 24 h | 5 to 10 µM
CSCC[C@H](NC=O)C(=O)N[C@@H](CCCNC(=N)N)C(=O)N[C@H](C(=O)NCC(=O)N[C@@H](CC(N)=O)C(=O)N[C@@H](C)C(=O)N[C@@H](CC(N)=O)C(=O)NCC(=O)N1CCN(c2ccc(N3C[C@H](CNC(C)=O)OC3=O)cc2F)CC1)[C@@H](C)O | Shigella flexneri | broth dilution | CGMCC 1.187 |  | 100 µM
[O-][N+]1=C(c2ccc(Cl)cc2)C2=NCCCN2c2ccccc21 | Bacteroides spp. and Parabacteroides distasonis |  |  |  | 0.5 to 2 µg/mL
CCCCCCCC(=O)NCCCC[C@H](NC(=O)CCCCCCC)C(=O)N[C@@H](CCCCNC(=O)CCCCCCC)C(=O)NCC(=O)NCC(=O)NCC(=O)N[C@@H](CS)C(=O)N[C@@H](CCCNC(=N)N)C(=O)N[C@@H](CCCCN)C(=O)N1CCC[C@H]1C(=O)N[C@@H](CS)C(=O)N[C@@H](CCCNC(=N)N)C(=O)N[C@@H](CCCCN)C(=O)N1CCC[C@H]1C(=O)N[C@@H](CS)C(=O)N[C@@H](CCCNC(=N)N)C(=O)N[C@@H](CCCCN)C(=O)N1CCC[C@H]1C(N)=O | Candida parapsilosis | broth microdilution | CGMCC 2.399, RPMI-1640 | 48 h, 30 °C | 16 µM
COc1ccc(C2=[N+]([O-])c3ccccc3N3CCN=C23)cc1 | Bacteroides fragilis |  |  |  | 0.06 to 0.125 µg/mL
CN[C@H](CC(C)C)C(=O)N[C@H]1C(=O)N[C@@H](CC(N)=O)C(=O)N[C@H]2C(=O)N[C@H]3C(=O)N[C@H](C(=O)N[C@H](C(=O)NCC(N)=O)c4cc(O)cc(O)c4-c4cc3ccc4O)[C@H](O)c3ccc(c(Cl)c3)Oc3cc2cc(c3O[C@@H]2O[C@H](CO)[C@@H](O)[C@H](O)[C@H]2O[C@H]2C[C@](C)(NCc3ccc(OCc4cn(CC(=O)N[C@H](C(=O)N[C@@H](CCN)C(=O)N[C@H]5CCNC(=O)[C@H]([C@@H](C)O)NC(=O)[C@H](CCN)NC(=O)[C@H](CCN)NC(=O)[C@H](CC(C)C)NC(=O)[C@@H](CC(C)C)NC(=O)[C@H](CCN)NC5=O)[C@@H](C)O)nn4)c(OC)c3)[C@H](O)[C@H](C)O2)Oc2ccc(cc2Cl)[C@H]1O | Enterococcus faecalis | broth microdilution | vancomycin-resistant |  | 48 µM
[O-][N+]1=C(Cc2ccccc2)C2=NCCCN2c2ccccc21 | Bacteroides fragilis |  |  |  | 0.5 to 4 µg/mL
CC(=O)N[C@@H](CC(C)C)C(=O)N[C@H]1CSSC[C@@H](C(=O)N2CCC[C@H]2C(N)=O)NC(=O)[C@H]([C@@H](C)O)NC(=O)[C@H](C(C)C)NC(=O)[C@H]([C@@H](C)O)NC(=O)[C@H](CCCCN)NC(=O)[C@H](CC(C)C)NC(=O)[C@H](Cc2ccccc2)NC(=O)[C@H](Cc2ccc(O)cc2)NC(=O)[C@H](CC(C)C)NC(=O)[C@H](CCCCN)NC(=O)[C@H](Cc2ccccc2)NC(=O)[C@H](CCCNC(=N)N)NC(=O)[C@H](CCC(N)=O)NC(=O)[C@H](CC(C)C)NC(=O)[C@H](CCCCN)NC(=O)[C@@H]2CCCN2C(=O)[C@H](CCCCN)NC(=O)[C@H](C(C)C)NC(=O)[C@H](CC(N)=O)NC(=O)[C@H](Cc2ccc(O)cc2)NC(=O)[C@H]([C@@H](C)O)NC1=O | Shigella flexneri | broth dilution | CGMCC strain | 24 h | 2.5 to 5 µM
C#CCOc1ccc(CN[C@@]2(C)C[C@H](O[C@H]3[C@H](Oc4c5cc6cc4Oc4ccc(cc4Cl)[C@@H](O)[C@@H](NC(=O)[C@@H](CC(C)C)NC)C(=O)N[C@@H](CC(N)=O)C(=O)N[C@H]6C(=O)N[C@H]4C(=O)N[C@H](C(=O)N[C@H](C(=O)NCC(N)=O)c6cc(O)cc(O)c6-c6cc4ccc6O)[C@H](O)c4ccc(c(Cl)c4)O5)O[C@H](CO)[C@@H](O)[C@@H]3O)O[C@@H](C)[C@H]2O)cc1OC | Enterococcus faecalis | broth microdilution | vancomycin-resistant, tryptic soy broth | 20 to 24 h, 37 °C, 0.002% polysorbate 80 | 64 µg/mL

A few entries again:
Compound | organism | assay | test system | conditions | MIC
CCCCCCCCCCCCCC(=O)N[C@H]1C(=O)N[C@@H](CN)C(=O)N[C@@H](CO)C(=O)N[C@@H](Cc2ccc(O)cc2)C(=O)O[C@H]1C | Staphylococcus aureus |  | SH1000 | added: menaquinone-4, molar ratio 0.5 | 2 µg/mL
OB(O)c1ccc(OCc2ccccc2)nc1F | Klebsiella aerogenes | bacterial growth | AmpC overproducer clinical isolate | without cefotaxime | > 2050 µg/mL
